Assay results pooled from the literature.
Protocols differ between the studies behind these lines.
SIGMAR1: Sigma non-opioid intracellular receptor 1 (SIGMAR1, Homo sapiens, UniProt Q99720)
UniProt Q99720, sequence (whole entry, looked up): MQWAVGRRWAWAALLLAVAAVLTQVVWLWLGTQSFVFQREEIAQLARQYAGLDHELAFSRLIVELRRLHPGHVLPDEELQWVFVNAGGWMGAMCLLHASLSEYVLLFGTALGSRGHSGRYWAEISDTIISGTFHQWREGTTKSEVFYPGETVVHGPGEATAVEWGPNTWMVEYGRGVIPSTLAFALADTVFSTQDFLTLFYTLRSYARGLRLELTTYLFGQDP
UniProt Q0VDG4, sequence (whole entry, looked up): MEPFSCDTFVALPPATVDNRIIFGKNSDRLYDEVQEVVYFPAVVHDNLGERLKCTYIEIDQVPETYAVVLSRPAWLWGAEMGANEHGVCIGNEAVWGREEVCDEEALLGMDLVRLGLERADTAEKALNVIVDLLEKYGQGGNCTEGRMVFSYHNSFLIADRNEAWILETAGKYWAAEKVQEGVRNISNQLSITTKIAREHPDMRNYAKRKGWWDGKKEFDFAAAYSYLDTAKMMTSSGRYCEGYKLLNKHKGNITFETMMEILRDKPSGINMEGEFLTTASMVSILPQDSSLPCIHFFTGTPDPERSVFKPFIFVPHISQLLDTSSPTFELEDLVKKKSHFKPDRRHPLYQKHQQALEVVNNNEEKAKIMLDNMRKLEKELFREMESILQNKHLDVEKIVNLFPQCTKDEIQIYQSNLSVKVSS
UniProt P54756, sequence (whole entry, looked up): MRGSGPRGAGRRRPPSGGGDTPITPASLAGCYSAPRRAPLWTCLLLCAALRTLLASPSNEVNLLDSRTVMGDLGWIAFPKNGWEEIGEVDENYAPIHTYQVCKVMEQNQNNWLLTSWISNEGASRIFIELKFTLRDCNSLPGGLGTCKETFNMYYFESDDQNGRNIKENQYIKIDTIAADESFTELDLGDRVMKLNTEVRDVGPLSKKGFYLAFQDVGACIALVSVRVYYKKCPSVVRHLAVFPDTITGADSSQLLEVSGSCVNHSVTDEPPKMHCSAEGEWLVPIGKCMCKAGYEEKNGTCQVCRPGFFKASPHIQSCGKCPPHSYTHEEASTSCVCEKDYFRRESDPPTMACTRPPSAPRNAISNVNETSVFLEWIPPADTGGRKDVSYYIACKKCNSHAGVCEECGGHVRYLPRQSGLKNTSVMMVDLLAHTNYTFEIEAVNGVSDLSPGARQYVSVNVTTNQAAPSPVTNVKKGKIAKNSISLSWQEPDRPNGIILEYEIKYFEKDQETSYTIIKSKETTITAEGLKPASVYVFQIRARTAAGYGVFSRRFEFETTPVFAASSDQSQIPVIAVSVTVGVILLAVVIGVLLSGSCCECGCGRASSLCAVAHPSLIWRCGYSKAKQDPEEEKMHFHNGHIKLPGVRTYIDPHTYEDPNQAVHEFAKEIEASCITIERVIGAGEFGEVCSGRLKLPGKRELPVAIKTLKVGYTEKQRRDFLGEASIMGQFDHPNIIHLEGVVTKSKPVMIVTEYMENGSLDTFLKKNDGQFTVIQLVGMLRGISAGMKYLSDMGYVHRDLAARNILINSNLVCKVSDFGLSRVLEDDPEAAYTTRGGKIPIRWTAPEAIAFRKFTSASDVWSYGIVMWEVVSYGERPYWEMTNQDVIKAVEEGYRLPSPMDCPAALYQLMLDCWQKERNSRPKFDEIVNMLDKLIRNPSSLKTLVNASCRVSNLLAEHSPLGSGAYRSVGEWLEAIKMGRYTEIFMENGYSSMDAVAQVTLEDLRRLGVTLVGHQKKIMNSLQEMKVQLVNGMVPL
UniProt P27815, sequence (whole entry, looked up): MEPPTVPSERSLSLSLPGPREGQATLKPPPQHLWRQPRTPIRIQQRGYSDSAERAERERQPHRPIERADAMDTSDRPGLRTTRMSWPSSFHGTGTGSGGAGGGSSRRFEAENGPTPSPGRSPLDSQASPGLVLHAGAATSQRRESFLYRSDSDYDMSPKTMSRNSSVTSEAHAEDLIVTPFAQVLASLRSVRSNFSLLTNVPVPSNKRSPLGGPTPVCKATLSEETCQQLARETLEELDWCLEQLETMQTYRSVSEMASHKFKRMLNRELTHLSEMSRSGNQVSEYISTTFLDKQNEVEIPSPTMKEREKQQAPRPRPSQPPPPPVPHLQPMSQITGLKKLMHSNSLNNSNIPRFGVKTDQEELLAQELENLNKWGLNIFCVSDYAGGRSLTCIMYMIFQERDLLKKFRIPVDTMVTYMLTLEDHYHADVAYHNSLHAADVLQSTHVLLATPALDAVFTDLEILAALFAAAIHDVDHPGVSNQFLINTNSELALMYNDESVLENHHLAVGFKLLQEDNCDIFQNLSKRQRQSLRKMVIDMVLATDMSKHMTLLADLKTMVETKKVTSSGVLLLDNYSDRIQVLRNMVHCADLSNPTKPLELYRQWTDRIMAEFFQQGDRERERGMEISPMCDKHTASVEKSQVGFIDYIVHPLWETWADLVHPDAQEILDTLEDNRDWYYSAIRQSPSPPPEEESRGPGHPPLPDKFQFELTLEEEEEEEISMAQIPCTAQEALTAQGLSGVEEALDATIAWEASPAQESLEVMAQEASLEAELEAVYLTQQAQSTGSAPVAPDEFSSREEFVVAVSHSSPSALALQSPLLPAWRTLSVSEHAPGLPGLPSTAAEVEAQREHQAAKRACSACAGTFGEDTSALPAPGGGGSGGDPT
UniProt P07947, sequence (whole entry, looked up): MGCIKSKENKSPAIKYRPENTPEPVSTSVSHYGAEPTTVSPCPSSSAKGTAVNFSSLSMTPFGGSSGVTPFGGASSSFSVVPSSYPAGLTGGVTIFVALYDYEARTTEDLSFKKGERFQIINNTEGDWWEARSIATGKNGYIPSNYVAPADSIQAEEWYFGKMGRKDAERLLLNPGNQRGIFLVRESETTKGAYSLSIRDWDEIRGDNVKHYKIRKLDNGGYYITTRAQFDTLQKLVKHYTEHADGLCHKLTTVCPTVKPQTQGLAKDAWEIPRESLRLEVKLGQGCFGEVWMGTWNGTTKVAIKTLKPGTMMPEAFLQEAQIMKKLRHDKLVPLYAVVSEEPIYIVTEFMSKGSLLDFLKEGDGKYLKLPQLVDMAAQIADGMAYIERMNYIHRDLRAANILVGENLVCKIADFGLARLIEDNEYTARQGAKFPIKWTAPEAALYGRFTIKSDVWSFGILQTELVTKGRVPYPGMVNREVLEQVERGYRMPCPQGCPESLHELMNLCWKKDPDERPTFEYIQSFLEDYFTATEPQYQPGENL
UniProt P25774, sequence (whole entry, looked up): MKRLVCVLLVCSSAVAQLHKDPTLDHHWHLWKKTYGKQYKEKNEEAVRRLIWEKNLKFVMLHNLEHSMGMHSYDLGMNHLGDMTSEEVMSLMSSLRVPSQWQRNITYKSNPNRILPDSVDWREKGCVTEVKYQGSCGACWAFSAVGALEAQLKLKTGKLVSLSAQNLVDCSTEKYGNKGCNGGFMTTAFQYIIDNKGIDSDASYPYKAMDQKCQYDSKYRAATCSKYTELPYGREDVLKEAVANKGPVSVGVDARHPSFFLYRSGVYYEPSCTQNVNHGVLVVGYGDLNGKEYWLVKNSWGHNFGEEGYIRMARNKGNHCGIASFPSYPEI
UniProt Q9Y2J8, sequence (whole entry, looked up): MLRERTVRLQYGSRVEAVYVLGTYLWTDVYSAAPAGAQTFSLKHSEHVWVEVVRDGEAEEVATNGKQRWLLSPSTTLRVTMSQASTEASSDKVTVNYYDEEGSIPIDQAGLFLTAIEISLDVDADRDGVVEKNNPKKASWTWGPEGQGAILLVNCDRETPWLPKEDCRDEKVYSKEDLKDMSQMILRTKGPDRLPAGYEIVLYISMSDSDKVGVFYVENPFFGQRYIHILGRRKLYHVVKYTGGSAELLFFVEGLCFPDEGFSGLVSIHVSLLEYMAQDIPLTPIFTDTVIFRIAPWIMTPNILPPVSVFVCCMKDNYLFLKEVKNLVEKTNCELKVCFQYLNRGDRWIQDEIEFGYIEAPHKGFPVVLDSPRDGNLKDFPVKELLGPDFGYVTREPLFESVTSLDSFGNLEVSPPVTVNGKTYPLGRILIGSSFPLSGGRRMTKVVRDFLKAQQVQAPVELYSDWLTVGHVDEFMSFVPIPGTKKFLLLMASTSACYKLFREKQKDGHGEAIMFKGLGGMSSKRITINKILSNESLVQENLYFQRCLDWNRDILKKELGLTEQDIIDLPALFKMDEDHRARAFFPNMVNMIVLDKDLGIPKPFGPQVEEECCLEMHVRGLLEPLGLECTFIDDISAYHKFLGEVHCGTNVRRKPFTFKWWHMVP

| SMILES | target | test | test system | conditions | scale | selectivity ratio |
| --- | --- | --- | --- | --- | --- | --- |
| OC1Cc2ccccc2CC1N1CCC2(C=Cc3cc(F)ccc32)CC1 (racemic) | SIGMAR1 |  | rat liver (sigma2), human sigma1 |  | baseline: Ki sigma2 over Ki sigma1 | 11 |
| Cc1ccc([C@H]2C[C@@H]2COc2cc(NCc3nnc(C)s3)nc(C)n2)nc1 | 3',5'-cyclic-AMP phosphodiesterase 4A, isoform PDE4A1 (PDE4A, Homo sapiens, UniProt P27815) | enzyme activity, inhibitor, IMAP fluorescence polarization |  | isoform PDE4A1 | baseline: Ki target over Ki PDE10A2 | 659000 fold |
| CCn1c(-c2nc3cc(C(=O)N4CCC[C@@H](N)C4)cc(OC)c3n2C)cc2cccnc21 | PADI2 (Homo sapiens, UniProt Q9Y2J8) |  |  |  | baseline: Ki' PADI2 over Ki' PAD4 | 8 |
| COc1ccc(F)cc1C(=O)NCc1ccc(-c2nn([C@@H](C)C(F)(F)F)c(N)c2C(N)=O)cc1 | YES1 (Homo sapiens, UniProt P07947) | target engagement, NanoBRET | HEK293 |  | baseline: YES1 over BTK | > 7600 |
| NNc1ccc(F)cc1 | Secernin-3 (Homo sapiens, UniProt Q0VDG4) | gel-based ABPP | HEK-293T lysate |  | baseline: IC50 AMD1 over Secernin-3 | 45 fold |
| Cc1ccc2c(c1)C1(C=C2)CCN(C2Cc3ccccc3CC2O)CC1 (racemic) | SIGMAR1 |  | rat liver (sigma2), human sigma1 |  | baseline: Ki sigma2 over Ki sigma1 | 120 |
| Cn1nccc1[C@]1(CNC(=O)c2ccc(F)c(F)c2-c2ccc(C(F)(F)F)cc2)NC(=O)NC1=O | Cathepsin S (CTSS, Homo sapiens, UniProt P25774) | inhibitor |  |  | baseline: CTSS over target | > 16700 |
| O[C@@H]1CCCC[C@H]1N1CCC(c2ccccc2)CC1 (racemic) | SIGMAR1 |  | rat liver (sigma2), human sigma1 |  | baseline: Ki sigma2 over Ki sigma1 | 5.5 |
| COc1cc2nccc(Oc3ccc(NC(=O)c4cc5c(n(-c6ccccc6)c4=O)CCCC5=O)nc3)c2cc1OC | EPHA5 (Homo sapiens, UniProt P54756) | cell viability, CellTiter-Glo | Ba/F3 expressing recombinant kinase |  | baseline: EPHA5 IC50 over AXL IC50 | > 100 |

Excerpt of the above:
| SMILES | target | test | test system | conditions | scale | selectivity ratio |
| --- | --- | --- | --- | --- | --- | --- |
| COc1cc2nccc(Oc3ccc(NC(=O)c4cc5c(n(-c6ccccc6)c4=O)CCCC5=O)nc3)c2cc1OC | EPHA5 (Homo sapiens, UniProt P54756) | cell viability, CellTiter-Glo | Ba/F3 expressing recombinant kinase |  | baseline: EPHA5 IC50 over AXL IC50 | > 100 |
